Measurements collected from several papers.
Compare with care: the assays were run in different laboratories. Several values in a cell are separate wells, animals, samples, runs or records.
Target: Tyrosine-protein kinase receptor TYRO3 (TYRO3, Homo sapiens, UniProt Q06418)

Cc1cccc(O[C@H]2CCC[C@@H](C(C)CNCc3ccncc3)C2)c1 (relative stereo)
inhibition (cell-free assay; 10 µM): -6%

O=C=[N][Ru-4]123([n]4c5ccc(O)cc5c5c6c(c7cc(F)c[n+]1c7c54)C(=O)NC6=O)[S+]1CC[S+]2CC[S+]3CC1 (stereo not drawn)
remaining activity (enzyme activity; 100 nM, human enzyme, together with: 10 µM ATP; baseline: untreated): 61%

C=CC(=O)N1CCCC(n2c(=O)c3ncccc3n(Cc3ccc(Oc4ccccc4)cc3)c2=O)C1 (stereo not drawn)
remaining binding (cell-free assay, competition with immobilised ligand; 1 µM): 95%

O=C(Cc1ccc(OCc2ccccc2)cc1)NC1(C(=O)O)CCN(C(=O)c2ccc(-c3cccc(Cl)c3)cc2)CC1
activity vs control (enzyme activity, inhibitor; 10 µM): 176%

Cc1cnc2nc1Nc1cccc(c1)COC/C=C/COCc1cc(ccc1OCCN1CCOCC1)N2
remaining binding (binding, competition with immobilised ligand; 0.1 µM): 68%

COc1cc(Nc2nc(C)cc(-c3cnn4nc(OC)ccc34)n2)cc(C(F)(F)F)c1
remaining binding (binding, competition with immobilised ligand; 1 µM): 76%

CC(C)=CC1OC(C)(C)C2C=C3C(=O)C(Cl)=CC(O)C3C3C(O)C4OC4C(=O)C132 (stereo not drawn)
remaining binding (cell-free assay, competition with immobilised ligand; 10 µM): 86%

CCN1CCN(Cc2ccc(NC(=O)c3ccc(C)c(NC(=O)c4cncc(-c5cnn(C)c5)c4)c3)cc2C(F)(F)F)CC1
remaining binding (binding, competition with immobilised ligand; 1 µM): 58%

COCC12C(=O)NC3C4(C(OC)CC1O)C1CC5(O)C(OC)C(O)C(OC(C)=O)(C1C5OC(=O)c1ccccc1)C3(O)C(OC)C24 (stereo not drawn)
remaining activity (kinase activity, inhibitor, ProQinase kinase profiling; 25 µM; baseline: control): 110% and 112%

C=CC(=O)N1Cc2nc(-c3cc(-c4cc(Cl)cnc4Cl)c(F)cc3F)n(-c3ccncn3)c2C1
inhibition (cell-free assay; 1 µM): 5.3%

COc1c(OCCCN2CCOCC2)ccc2c1N=C(NC(=O)c1cnc(N)nc1)N1CCN=C21
remaining activity (kinase activity, inhibitor; 1 µM; baseline: untreated control): 91%

NC(=O)[C@@H](O)C[C@H]1CCc2sc3ncnc(O[C@H]4CC[C@H](N5CCOCC5)CC4)c3c21
inhibition (enzyme activity, inhibitor; 10 µM): 2%

C=CC(=O)N1CCc2ccc(-n3c(=O)ccc4cnc5ccc(-c6cnn(C)c6)cc5c43)cc21
remaining binding (KINOMEscan; 1 µM; baseline: DMSO control): 96%

CNC(=O)C1CCN(c2cc(C)c(F)cc2NC(=O)c2ccc(-c3cc(O)ccc3C)c(C)c2)CC1
remaining binding (binding, competition with immobilised ligand; 1 µM): 16%

C=CC(=O)Nc1cccc(-c2cnc3[nH]cc(C(=O)NC(C)(C)C)c3n2)c1
inhibition (kinase activity; 0.1 µM): 10% and 7%
